Assay results from different studies.
Each line is one published result; not all experiments were run side by side. “And” joins repeats or separate records; there may be more than shown. ± marks the error that the study gave.

| Compound | assay | test system | setting | Tmax |
| --- | --- | --- | --- | --- |
| O=C(O)C(F)(F)C(F)(F)C(F)(F)C(F)(F)C(F)(F)C(F)(F)C(F)(F)F | two-compartment model | human, plasma | oral, 50 mg single dose, geometric mean | 3 h |
| OCc1ncc2n1-c1ccc(Cl)cc1C(c1ccccc1F)=NC2 |  | human | dose not given, metabolite of midazolam, together with: midazolam alone | 0.51 h |
| C[C@H](NC(=O)c1c(C(F)F)nn(C)c1Oc1cccc(C(F)(F)F)c1)c1ccc(C(=O)O)cc1 |  | human, plasma | 500 mg, cycle 1 day 8, median | 2 h |
| CC(=O)c1c(C)c2cnc(Nc3ccc(C4CCN(CCS(C)(=O)=O)CC4)cn3)nc2n(C2CCCC2)c1=O |  | human patients, plasma | oral, 100 mg twice daily, day 1 single dose, together with: fulvestrant | 1.38 h |
| N.N.O=C([O-])C1(C(=O)[O-])CCC1.[Pt+2] | item: non-protein-bound platinum | human, plasma ultrafiltrate | target AUC 3, median | 0.6 h |
| COc1cc(C(=O)NC2CCN(C)CC2)c(F)cc1Nc1ncc(C(F)(F)F)c(Oc2cccc3c2C(=O)N(C)C3)n1 |  | human patients, plasma | oral, 100 mg single dose, median | 2.01 h |
| O=c1ccc2ncc(=O)n3c2n1C[C@H]3CN1CCC(NCc2cc3c(cn2)OCCC3)CC1 |  | healthy human volunteers, plasma | oral, 1500 mg single dose, median, alone | 2.5 h |
| NCCCS(=O)(=O)O |  | human, plasma | oral, 256.5 mg twice daily, day 7, capsule, fed, dosed days 2-7 | 2 h |
| C[C@@H]1CC[C@H]2[C@@H](C)C(=O)O[C@@H]3O[C@@]4(C)CC[C@@H]1[C@]32OO4 |  | human, male, plasma | oral, dose not given, day 2 | 1.5 ± 1.3 h |
| CCC(CC)COC(=O)[C@H](C)N[P@](=O)(OC[C@H]1O[C@@](C#N)(c2ccc3c(N)ncnn23)[C@H](O)[C@@H]1O)Oc1ccccc1 |  | human, plasma | intravenous, 100 mg single dose | 0.5 h |
| O[C@H]1CCCN[C@@H]1CCCn1cnc2c(Cl)c(Cl)ccc21 |  | healthy human, plasma | oral, 150 mg, steady state, together with: nintedanib 150 mg | 4 h |
| OCc1ncc2n1-c1ccc(Cl)cc1C(c1ccccc1F)=NC2 |  | humans, plasma | 3 mg of midazolam, together with: isavuconazole | 2 h |
| C=C(C)[C@@H]1CC[C@]2(NCCN3CCS(=O)(=O)CC3)CC[C@]3(C)[C@H](CC[C@@H]4[C@@]5(C)CC=C(C6=CC[C@@](COc7ncccc7C#N)(C(=O)O)CC6)C(C)(C)[C@@H]5CC[C@]43C)[C@@H]12 |  | human, fed | oral, 100 mg tablet, median | 8.42 h |
| O=C(O)C(O)(c1cccs1)c1cccs1 | item: metabolite | human, plasma | oral, 2 mg once daily, 5 days, median | 3 h |
| COc1ccc(C[C@@H]2NC(=O)[C@H]([C@@H](C)O)NC(=O)[C@@H]3[C@@H]4CCN3C(=O)[C@@H]3Cc5cn(c6ccc(F)cc56)CCCCCCN(Cc5ccc(cc5)CCNC(=O)[C@]5(C)CCCN5C2=O)C(=O)CCC(=O)N[C@@H](C)C(=O)N[C@H](CNC(=O)CCCCC[N+](C)(C)C)C(=O)N[C@@H](Cc2cccc(c2)CNC(=O)CO4)C(=O)N3)cc1 |  | human, plasma | oral, 40 mg, fasted, together with: sodium caprate 720 mg | 0.75 h |
| OCc1ncc2n1-c1ccc(Cl)cc1C(c1ccccc1F)=NC2 |  | healthy human volunteers, plasma | 5 mg single dose, day 1, fed, given alone | 2 h |
| OCc1ncc2n1-c1ccc(Cl)cc1C(c1ccccc1F)=NC2 |  | human, plasma | 7.5 mg midazolam, day 1, median, metabolite of midazolam, together with: midazolam 7.5 mg alone | 0.5 h |
| CCCCCCCCCCC(=O)O[C@H]1CC[C@H]2[C@@H]3CCC4=CC(=O)CC[C@]4(C)[C@H]3CC[C@]12C | item: testosterone | human, plasma | oral, 237 mg | 8 h and 4 h |
| CCOC(=O)C1=C(CN2CCOCC2)NC(c2nccs2)=NC1c1ccc(F)cc1Br (centres unmarked) |  | human, healthy | fasted | 0.75 h |
| C[C@@](Cc1ccc(O)c(O)c1)(NN)C(=O)O | item: levodopa | healthy human volunteers, plasma | subcutaneous, 24 h infusion, median, crossover | 20 h |
| OCc1ncc2n1-c1ccc(Cl)cc1C(c1ccccc1F)=NC2 |  | human, plasma | oral, 2 mg midazolam, day 1, midazolam alone, median | 0.5 h |
| COc1cc2nccc(Oc3ccc(NC(=O)NC4CC4)c(Cl)c3)c2cc1C(N)=O |  | human, plasma | oral, 6.4 mg, 4 weeks, multiple doses, median | 2 h |
| CCOC(=O)C1=C[C@@H](OC(CC)CC)[C@H](NC(C)=O)[C@@H](N)C1 |  | human, both sexes, plasma | oral, 150 mg, median, together with: alcohol | 1.5 h |
